Assay results gathered from unrelated publications.
Each line is one published result; not all experiments were run side by side. Numbers after ± are the reported error.

SMILES	tested on	assay	test system	setting	endpoint	value
CC(=O)OC[C@H]1O[C@@H]([S-])[C@H](OC(C)=O)[C@@H](OC(C)=O)[C@@H]1OC(C)=O.CCP(CC)CC.[Au+]	NCI-H661 HMOX1-GFP low	cell viability, MTT	–	48 h	IC50	580 nM
C[C@H]1Oc2cc(cnc2N)-c2c(nn(C)c2C#N)CN(C)C(=O)c2ccc(F)cc21	NCI-H2228 (EML4-ALK variant 3)	cell viability	–	–	IC50	< 1.02 nM
COc1cccc2c1C(=O)c1c(O)c3c(c(O)c1C2=O)C[C@@](O)(C(=O)CO)C[C@@H]3O[C@H]1C[C@H](N)[C@H](O)[C@H](C)O1	CHP-212 parental	cell viability, SRB	–	mean of 3 runs	IC50	46.7 nM
C[n+]1cc2c3c(ccc2c2ccc4cc5c(cc4c21)OCO5)OCO3	Toxoplasma gondii	bradyzoite growth	–	glutamine-induced bradyzoites, glucose-free medium	EC50	1250 nM
CC1(C)CCC(CN2CCN(c3ccc(C(=O)NS(=O)(=O)c4ccc(NCC5CCOCC5)c([N+](=O)[O-])c4)c(Oc4cnc5[nH]ccc5c4)c3)CC2)=C(c2ccc(Cl)cc2)C1	CD56+ NK cells from healthy blood	cell viability, high-throughput flow cytometry	–	–	IC50	132 nM
CN(C)c1ccc2cc(C(=O)NS(=O)(=O)c3ccccc3-c3ccccc3)oc2c1	JIMT-1	cell proliferation	–	144 h	IC50	> 20000 nM
CCNc1nc2c(c(N3CC(=O)Nc4cc(OC)ccc43)n1)CCC2	panel, incl lines, paclitaxel resistant	cell proliferation, MTS	–	72 h, mean over panel	IC50	0.76 nM
Cc1cc(Nc2ncc(Cl)c(Nc3ccccc3S(=O)(=O)C(C)C)n2)c(OC(C)C)cc1C1CCNCC1	Ba/F3 EML4-ALK variant 1 S1206Y	cell viability	–	–	IC50	70.9 nM
N#Cc1ccc(C[C@@H](Nc2nnc(-c3ccc(Br)cc3)o2)C(=O)N2CCc3ccccc32)cc1	human neutrophils	calcium mobilization, desensitization	–	with: standard agonist	IC50	> 50000 nM
CC1(C)COc2ccc(F)cc2CN2c3nc4c(cnn4cc3OC[C@H]2C(F)F)C(=O)N1	Ba/F3 EML4-ALK v1	cell viability	–	–	IC50	52.4 nM
O=C(O)c1ccccc1Nc1cccc(C(F)(F)F)c1	HEK293A LATS1/2 double knockout	TEAD reporter gene, GTIIC luciferase	–	24 h	IC50	258000 nM
N#Cc1ccc(C[C@@H](Nc2nnc(-c3ccc(F)cc3)s2)C(=O)N2CCc3ccccc32)cc1	human neutrophils	calcium mobilization, desensitization	–	with: standard agonist	IC50	> 50000 nM
COc1ncnc(C2CC2)c1-c1ncc2cnn(Cc3ccc(-c4nc(C(F)(F)F)cn4C(C)C)cc3)c2n1	CHP-212	cell viability, SRB	–	mean of replicates	IC50	42600 nM
Cc1c(C(=O)O)ccc2c3n(nc12)[C@@H]1[C@H](C3)N(CC2CC2)[C@@]2(C(=O)Nc3cc(Cl)ccc32)[C@H]1c1cccc(Cl)c1F	well-differentiated liposarcoma cells	alamarBlue	–	unbound concentration	IC50	0.24 nM
C=CC(=O)N1CCC[C@@H](n2nc(-c3ccc(Oc4ccccc4)cc3)c3c(N)ncnc32)C1	human platelets, healthy donors	calcium mobilisation, inhibitor, Fura-2 fluorescence	–	with: CRP 10 µg/mL	IC50	1880 nM
C[C@@H]1CN(C(=O)c2ccc(NC(=O)c3cc(O[C@H](C)c4c(Cl)ccc(F)c4Cl)c(N)nn3)cc2)C[C@H](C)N1	Ba/F3 EML4-ALK v1	cell viability	–	–	IC50	112 nM
O=C(O)/C=C/c1ccccc1	MDA-MB-231 breast cancer	cell viability, MTT	DMEM with 10% FBS	48 h	IC50	> 200000 nM
C[C@H]1[C@H](OC(=O)CCC(=O)O)O[C@@H]2O[C@@]3(C)CC[C@H]4[C@H](C)CC[C@@H]1[C@@]24OO3	primary AML blasts 4	cell viability	human	96 h	IC50	29000 nM
N#Cc1ccc(C[C@H](Nc2nnc(-c3cccc(Br)c3)s2)C(=O)N2CCc3ccccc32)cc1	human neutrophils	calcium mobilization, desensitization	–	with: standard agonist	IC50	> 50000 nM

SMILES	tested on	assay	test system	setting	endpoint	value
COc1cc2nccc(Oc3ccc(NC(=O)C4(C(=O)Nc5ccc(F)cc5)CC4)cc3)c2cc1OC	Rh36 (embryonal rhabdomyosarcoma)	cell growth	–	3 days	IC50	4620 ± 840 nM
CC#CC(=O)N1CCC[C@H]1c1nc(-c2ccc(C(=O)Nc3ccccn3)cc2)c2c(N)nccn12	washed human platelets, healthy donors	platelet aggregation, inhibitor, light transmission aggregometry	–	5 min preincubation, with: CRP 10 µg/mL	IC50	21200 nM
CCCCN1C[C@H](O)[C@@H](O)[C@@H](O)[C@H]1CO	sample BB patient fibroblasts	Gb3 level lowering, LC-MS/MS, refers to: Gb3 d18:1/16:0	–	216 h	IC50	11000 nM
CCc1c(-c2ccccc2)c(-c2ccccc2)nn1-c1ccccc1-c1cccc(OCC(=O)O)c1	mouse bone marrow macrophages	osteoclast formation, TRAP staining	–	with: M-CSF and sRANKL	IC50	892 nM
N#Cc1ccc(C[C@@H](NC(=O)c2cc3cc([N+](=O)[O-])ccc3[nH]2)C(=O)N2CCc3ccccc32)cc1	human neutrophils	calcium mobilization, desensitization	–	with: standard agonist	IC50	> 50000 nM
COC(=O)N[C@@H](C)CNc1nccc(-c2cn(C(C)C)nc2-c2cc(Cl)cc(NS(C)(=O)=O)c2F)n1	primary keratinocytes	ERK phosphorylation, Western blot	–	1 h	IC50	9770 nM
C[C@@H](Oc1cc(-c2cnn(C3CCNCC3)c2)cnc1N)c1c(Cl)ccc(F)c1Cl	Rh36 (embryonal rhabdomyosarcoma)	cell growth	–	3 days	IC50	820 ± 120 nM
O=c1c(O)c(-c2ccc(O)c(O)c2)oc2cc(O)cc(O)c12	SV-HUC-1	cell growth, CellTiter-Glo	–	72 h	IC50	81200 nM
Cc1nn(-c2nc3ccc(Cl)c(Cl)c3[nH]2)c(O)c1C1OC(=O)c2ccccc21 (stereo not shown)	RAW-ISG (mouse)	IFN reporter gene, inhibitor, luciferase reporter	–	with: HT-DNA	IC50	2620 nM
NC(=O)NOCCCCCCCCCCCCCCCC[P+](c1ccccc1)(c1ccccc1)c1ccccc1	mouse myeloid-derived suppressor cells	suppressive neutrophil differentiation, flow cytometry	–	–	IC50	560 ± 120 nM
O=[N+]([O-])c1ccc2c(c1)S(=O)(=O)C=C2	Toxoplasma gondii	parasite growth	HFF, bradyzoite, glutamine-induced	–	EC90	4020 nM
C[C@H]1[C@@H](O)O[C@@H]2O[C@@]3(C)CC[C@H]4[C@H](C)CC[C@@H]1[C@@]24OO3	7702 normal human cells	cell growth, CCK-8	–	48 h	IC50	> 50000 nM
N#Cc1ccc(C[C@H](Nc2c(Nc3ccc(F)cc3)c(=O)c2=O)C(=O)N2CCc3ccccc32)cc1	human neutrophils	calcium mobilization, desensitization	–	with: standard agonist	IC50	1300 ± 400 nM
O=C(O)c1ccc(O)cc1	MDA-MB-231 breast cancer	cell viability, MTT	DMEM with 10% FBS	48 h	IC50	> 200000 nM
N#Cc1ccc(C[C@@H](Nc2c(Nc3ccc(Br)cc3)c(=O)c2=O)C(=O)N2CCc3ccccc32)cc1	human neutrophils	calcium mobilization, desensitization	–	with: standard agonist	IC50	> 50000 nM
CCC(=O)N1CCC(COCC(=O)N2CCN(c3nc(-c4cnc(N)nc4C(F)F)nc(N4CCOC[C@@H]4C)n3)CC2)CC1	MDA-MB-453	western blot, refers to: phospho-PKB/Akt Ser473	–	2 h	IC50	35.6 nM
CC(C)C[C@H](NC(=O)[C@H](Cc1ccccc1)NC(=O)c1cnccn1)B(O)O	CHP-212 parental	cell viability, SRB	–	mean of 3 runs	IC50	5260 nM
CC(C)(C)c1nc(-c2cccc(NS(=O)(=O)c3c(F)cccc3F)c2F)c(-c2ccnc(N)n2)s1	primary keratinocytes	ERK phosphorylation, Western blot	–	1 h	IC50	21000 nM
